Experimental data gathered from unrelated publications.
A part holds a random share of what one study measured.

Block 1
Target: Histone acetyltransferase KAT6A, both winged helices, GST fusion (KAT6A, Homo sapiens, UniProt Q92794, residues 1-181)
Technique: protein binding microarray
Form: double-stranded DNA, one strand shown
Medium: in vitro
Concentration: not given
Notes: 8-mer, flanks averaged, mean of 2 arrays, mostly near background
Baseline: not given
Direction: higher = stronger binding
Construct (chain): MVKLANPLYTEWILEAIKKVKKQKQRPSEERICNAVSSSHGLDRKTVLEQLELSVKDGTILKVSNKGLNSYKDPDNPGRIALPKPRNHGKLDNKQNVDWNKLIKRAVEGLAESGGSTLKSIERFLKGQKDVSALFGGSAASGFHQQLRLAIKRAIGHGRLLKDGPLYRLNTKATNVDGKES
For `ATTAACCG`, the E-score was 0.213.
For `CCTAACAC`, the E-score was -0.106.
`TCCGATCA` gave an E-score of 0.0554.

Mixed results
SALL4 full length isoform A: Sal-like protein 4, full length isoform A (SALL4, Homo sapiens, UniProt Q9UJQ4, residues 1-1053)
UniProt Q9UJQ4, sequence (whole entry, looked up): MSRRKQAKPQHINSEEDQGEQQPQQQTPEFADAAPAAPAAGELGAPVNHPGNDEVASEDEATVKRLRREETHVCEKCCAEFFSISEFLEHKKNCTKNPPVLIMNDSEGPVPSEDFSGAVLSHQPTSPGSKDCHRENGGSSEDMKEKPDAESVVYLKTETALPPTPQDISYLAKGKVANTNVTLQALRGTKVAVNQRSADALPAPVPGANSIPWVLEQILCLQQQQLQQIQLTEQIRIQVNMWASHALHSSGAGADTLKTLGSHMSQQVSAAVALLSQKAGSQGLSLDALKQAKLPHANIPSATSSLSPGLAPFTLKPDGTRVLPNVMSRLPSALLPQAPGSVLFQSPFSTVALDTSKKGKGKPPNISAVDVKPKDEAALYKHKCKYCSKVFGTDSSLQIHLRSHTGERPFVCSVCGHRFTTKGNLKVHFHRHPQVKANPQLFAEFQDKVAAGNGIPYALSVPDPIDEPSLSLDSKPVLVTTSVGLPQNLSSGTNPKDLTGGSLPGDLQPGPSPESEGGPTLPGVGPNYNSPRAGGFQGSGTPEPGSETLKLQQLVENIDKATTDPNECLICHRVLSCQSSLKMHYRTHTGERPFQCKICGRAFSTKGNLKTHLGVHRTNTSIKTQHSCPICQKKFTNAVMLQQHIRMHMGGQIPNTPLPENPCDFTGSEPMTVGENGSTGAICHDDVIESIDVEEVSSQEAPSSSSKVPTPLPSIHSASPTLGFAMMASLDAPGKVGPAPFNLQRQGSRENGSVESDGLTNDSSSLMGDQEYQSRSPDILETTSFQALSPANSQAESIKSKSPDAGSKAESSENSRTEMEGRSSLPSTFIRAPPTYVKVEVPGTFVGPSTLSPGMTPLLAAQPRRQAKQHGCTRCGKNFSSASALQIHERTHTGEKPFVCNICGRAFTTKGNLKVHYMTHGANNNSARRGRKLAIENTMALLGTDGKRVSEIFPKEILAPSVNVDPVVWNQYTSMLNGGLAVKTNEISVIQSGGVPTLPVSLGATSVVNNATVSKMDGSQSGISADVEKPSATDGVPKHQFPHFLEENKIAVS
PABPC1L2 full length, GST fusion: PABPC1L2, full length, GST fusion (mouse, UniProt A0ABA7IW68)
For `GATCTGAC`, the E-score was -0.11 (SALL4 full length isoform A; universal PBM; double-stranded DNA, one strand shown, in vitro; 600 nM, 8-mer, flanks averaged, mean of replicates; higher = stronger binding).
`ACUACGC` has a 7-mer Z-score of -0.208 (PABPC1L2 full length, GST fusion; RNAcompete; RNA, in vitro; 20 nM, 7-mer, probes averaged, single round; baseline: mean of 7-mers, higher = stronger binding).
The E-score of `CTGCTTGC` is reported as -0.105 (SALL4 full length isoform A; universal PBM; double-stranded DNA, one strand shown, in vitro; 600 nM, 8-mer, flanks averaged, mean of replicates; higher = stronger binding).
For `UGGAGAU`, the 7-mer Z-score was 0.0442 (PABPC1L2 full length, GST fusion; RNAcompete; RNA, in vitro; 20 nM, 7-mer, probes averaged, single round; baseline: mean of 7-mers, higher = stronger binding).
With `PhoQ, residues 284 288 289 292 302 303 GLASVI` the fold induction was 2.8 (PhoP, residues 12 14 15 18 19 NHFIF (Escherichia coli, UniProt P23836); Sort-seq, refers to: YFP reporter; E. coli; PhoQ-PhoP variant library, added: 10 µM Mg2+; baseline: high Mg2+ state, higher = stronger signaling).

For quick reference, copied from above (mixed results):
With `PhoQ, residues 284 288 289 292 302 303 GLASVI` the fold induction was 2.8 (PhoP, residues 12 14 15 18 19 NHFIF (Escherichia coli, UniProt P23836); Sort-seq, refers to: YFP reporter; E. coli; PhoQ-PhoP variant library, added: 10 µM Mg2+; baseline: high Mg2+ state, higher = stronger signaling).
